Experimental data from different studies.
Numbered parts are unrelated; each lists some results of a single study.
Sequence of UniProt Q05655 (whole entry, looked up): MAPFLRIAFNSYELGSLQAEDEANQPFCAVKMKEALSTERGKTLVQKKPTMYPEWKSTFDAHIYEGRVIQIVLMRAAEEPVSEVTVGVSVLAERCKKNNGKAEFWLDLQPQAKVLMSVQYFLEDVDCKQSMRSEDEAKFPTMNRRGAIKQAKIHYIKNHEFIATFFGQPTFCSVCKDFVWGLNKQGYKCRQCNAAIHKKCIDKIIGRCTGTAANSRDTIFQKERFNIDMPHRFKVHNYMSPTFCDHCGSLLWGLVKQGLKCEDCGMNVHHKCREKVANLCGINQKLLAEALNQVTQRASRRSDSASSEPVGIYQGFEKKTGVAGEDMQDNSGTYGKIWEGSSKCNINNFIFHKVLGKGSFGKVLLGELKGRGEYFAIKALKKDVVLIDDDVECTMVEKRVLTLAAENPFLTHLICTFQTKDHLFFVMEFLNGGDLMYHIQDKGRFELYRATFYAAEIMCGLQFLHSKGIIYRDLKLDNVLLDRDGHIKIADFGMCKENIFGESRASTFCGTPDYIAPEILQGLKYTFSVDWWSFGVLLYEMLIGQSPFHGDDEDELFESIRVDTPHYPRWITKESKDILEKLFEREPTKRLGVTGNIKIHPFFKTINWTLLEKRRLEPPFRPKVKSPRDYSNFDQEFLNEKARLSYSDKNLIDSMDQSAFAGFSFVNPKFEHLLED
Sequence of UniProt Q02763 (whole entry, looked up): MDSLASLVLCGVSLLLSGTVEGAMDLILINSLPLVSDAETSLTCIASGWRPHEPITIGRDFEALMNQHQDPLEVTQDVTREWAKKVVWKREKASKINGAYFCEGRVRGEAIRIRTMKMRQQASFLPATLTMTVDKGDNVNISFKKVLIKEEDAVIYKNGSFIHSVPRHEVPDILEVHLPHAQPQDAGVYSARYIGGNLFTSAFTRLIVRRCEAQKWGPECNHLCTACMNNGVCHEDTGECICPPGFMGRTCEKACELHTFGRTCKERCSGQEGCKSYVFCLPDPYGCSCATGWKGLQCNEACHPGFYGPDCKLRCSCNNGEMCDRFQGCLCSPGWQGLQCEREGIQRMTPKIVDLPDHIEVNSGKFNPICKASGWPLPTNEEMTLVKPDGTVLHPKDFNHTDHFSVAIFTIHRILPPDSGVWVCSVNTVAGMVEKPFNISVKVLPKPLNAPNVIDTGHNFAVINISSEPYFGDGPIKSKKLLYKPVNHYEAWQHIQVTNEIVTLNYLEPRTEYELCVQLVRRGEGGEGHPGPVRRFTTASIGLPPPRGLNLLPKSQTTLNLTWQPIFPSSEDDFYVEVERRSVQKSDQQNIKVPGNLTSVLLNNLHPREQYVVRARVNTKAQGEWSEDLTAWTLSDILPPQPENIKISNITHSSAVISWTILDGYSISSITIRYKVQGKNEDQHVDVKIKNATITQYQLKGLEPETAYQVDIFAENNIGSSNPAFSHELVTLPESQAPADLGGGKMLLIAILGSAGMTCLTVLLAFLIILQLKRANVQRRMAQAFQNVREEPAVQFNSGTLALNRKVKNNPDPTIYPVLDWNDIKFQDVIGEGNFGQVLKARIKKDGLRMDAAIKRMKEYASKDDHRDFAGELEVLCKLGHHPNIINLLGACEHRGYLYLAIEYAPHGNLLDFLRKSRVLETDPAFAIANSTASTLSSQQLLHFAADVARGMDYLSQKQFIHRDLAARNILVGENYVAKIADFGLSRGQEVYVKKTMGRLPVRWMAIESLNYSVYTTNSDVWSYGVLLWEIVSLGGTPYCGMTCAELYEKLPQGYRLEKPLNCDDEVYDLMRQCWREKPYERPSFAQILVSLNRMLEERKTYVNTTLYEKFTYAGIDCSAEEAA
Sequence of UniProt O43318 (whole entry, looked up): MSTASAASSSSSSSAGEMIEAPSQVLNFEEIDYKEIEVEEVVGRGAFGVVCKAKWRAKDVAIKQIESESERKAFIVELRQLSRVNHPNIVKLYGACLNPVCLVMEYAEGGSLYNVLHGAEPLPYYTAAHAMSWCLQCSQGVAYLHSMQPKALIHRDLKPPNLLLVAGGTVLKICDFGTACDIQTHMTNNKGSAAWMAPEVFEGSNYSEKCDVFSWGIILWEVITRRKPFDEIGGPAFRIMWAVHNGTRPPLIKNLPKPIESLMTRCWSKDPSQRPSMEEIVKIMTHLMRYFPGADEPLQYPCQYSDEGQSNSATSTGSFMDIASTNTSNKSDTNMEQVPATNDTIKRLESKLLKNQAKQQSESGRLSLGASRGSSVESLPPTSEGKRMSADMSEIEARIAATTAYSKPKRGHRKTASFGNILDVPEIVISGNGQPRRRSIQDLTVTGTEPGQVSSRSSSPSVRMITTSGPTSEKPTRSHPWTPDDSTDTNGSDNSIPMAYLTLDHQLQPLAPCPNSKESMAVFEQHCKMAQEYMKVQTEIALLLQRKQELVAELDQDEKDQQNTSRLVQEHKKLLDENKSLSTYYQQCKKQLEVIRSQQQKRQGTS

Study 1 — technique: KINOMEscan; concentration: 1000 nM; reference: control; measurement: remaining binding
SMILES: Cc1cc2c(C(N)=O)c(N)n(-c3c(C)ccc(O)c3C)c2nc1C
SRC: 0.15%
FRK: 0.95%
CSNK1A1: 95%
PIK4CB: 100%
CASK: 69%
MKNK2: 100%

Study 2 — concentration: 1 µM; measurement: remaining binding
SMILES: CCC(=O)N[C@@H]1CC[C@H](C(=O)N(C)c2ccc(-c3nc4ccccc4o3)cc2)C1
NEK1 (Homo sapiens, UniProt Q96PY6); cell-free assay, competition with immobilised ligand: 100%
TEK (Homo sapiens, UniProt Q02763); cell-free assay, competition with immobilised ligand: 82%
CSNK1D (Homo sapiens, UniProt P48730); cell-free assay, competition with immobilised ligand: 100%
MAP2K3 (Homo sapiens, UniProt P46734); cell-free assay, competition with immobilised ligand: 91%
MAP3K7 (Homo sapiens, UniProt O43318); cell-free assay, competition with immobilised ligand: 100%
PRKCH (Homo sapiens, UniProt P24723); cell-free assay, competition with immobilised ligand: 95%
ACVR1 (Homo sapiens, UniProt Q04771); cell-free assay, competition with immobilised ligand: 94%
PRKAA1 (Homo sapiens, UniProt Q13131); cell-free assay, competition with immobilised ligand: 91%
WEE1 (Homo sapiens, UniProt P30291); cell-free assay, competition with immobilised ligand: 99%
STK25 (Homo sapiens, UniProt O00506); cell-free assay, competition with immobilised ligand: 100%
MET (Homo sapiens, UniProt P08581); cell-free assay, competition with immobilised ligand: 100%
Tyrosine-protein kinase ABL1, phosphorylated (ABL1, Homo sapiens, UniProt P00519, T315I); cell-free assay, competition with immobilised ligand: 87%
PIK3CA (Homo sapiens, UniProt P42336, E542K); cell-free assay, competition with immobilised ligand: 84%
YES1 (Homo sapiens, UniProt P07947); cell-free assay, competition with immobilised ligand: 100%
IGF1R (Homo sapiens, UniProt P08069); cell-free assay, competition with immobilised ligand: 100%
PRKCD (Homo sapiens, UniProt Q05655); cell-free assay, competition with immobilised ligand: 89%
Tyrosine-protein kinase ABL1, phosphorylated (ABL1, Homo sapiens, UniProt P00519, F317I); binding: 87%
CAMKK1 (Homo sapiens, UniProt Q8N5S9); cell-free assay, competition with immobilised ligand: 100%
MARK1 (Homo sapiens, UniProt Q9P0L2); cell-free assay, competition with immobilised ligand: 86%
AKT1 (Homo sapiens, UniProt P31749); cell-free assay, competition with immobilised ligand: 100%

Study 3 — effect on: enzyme activity; concentration: 10 µM; measurement: remaining activity
Compound: Cc1sc(C(=O)NC2COC2)cc1-n1cc(NC(=O)Nc2c(F)cccc2Cl)cn1
RAF1 (Homo sapiens, UniProt P04049); reference: untreated control: 85.5%
Cyclin-dependent kinase 2, with cyclin E2 (CDK2, Homo sapiens, UniProt P24941); reference: untreated control: 89.3%
Myosin-IIIa (MYO3A, Homo sapiens, UniProt Q8NEV4); inhibitor: 91.1%
Cyclin-dependent kinase 1, with cyclin B (CDK1, Homo sapiens, UniProt P06493); reference: untreated control: 92.5%
PHKG2 (Homo sapiens, UniProt P15735); reference: untreated control: 80.5%
STK39 (Homo sapiens, UniProt Q9UEW8); reference: untreated control: 62.6%
MAP2K7 (Homo sapiens, UniProt O14733); reference: untreated control: 115%
KIT (Homo sapiens, UniProt P10721); reference: untreated control: 63.8%

Study 4 — mode: inhibitor; concentration: concentration not given; notes: absolute value; added: with minus without ssDNA; measurement: difference in remaining activity
Target: DNA polymerase theta, helicase domain (POLQ, Homo sapiens, UniProt O75417)
Sequence of UniProt O75417 (whole entry, looked up): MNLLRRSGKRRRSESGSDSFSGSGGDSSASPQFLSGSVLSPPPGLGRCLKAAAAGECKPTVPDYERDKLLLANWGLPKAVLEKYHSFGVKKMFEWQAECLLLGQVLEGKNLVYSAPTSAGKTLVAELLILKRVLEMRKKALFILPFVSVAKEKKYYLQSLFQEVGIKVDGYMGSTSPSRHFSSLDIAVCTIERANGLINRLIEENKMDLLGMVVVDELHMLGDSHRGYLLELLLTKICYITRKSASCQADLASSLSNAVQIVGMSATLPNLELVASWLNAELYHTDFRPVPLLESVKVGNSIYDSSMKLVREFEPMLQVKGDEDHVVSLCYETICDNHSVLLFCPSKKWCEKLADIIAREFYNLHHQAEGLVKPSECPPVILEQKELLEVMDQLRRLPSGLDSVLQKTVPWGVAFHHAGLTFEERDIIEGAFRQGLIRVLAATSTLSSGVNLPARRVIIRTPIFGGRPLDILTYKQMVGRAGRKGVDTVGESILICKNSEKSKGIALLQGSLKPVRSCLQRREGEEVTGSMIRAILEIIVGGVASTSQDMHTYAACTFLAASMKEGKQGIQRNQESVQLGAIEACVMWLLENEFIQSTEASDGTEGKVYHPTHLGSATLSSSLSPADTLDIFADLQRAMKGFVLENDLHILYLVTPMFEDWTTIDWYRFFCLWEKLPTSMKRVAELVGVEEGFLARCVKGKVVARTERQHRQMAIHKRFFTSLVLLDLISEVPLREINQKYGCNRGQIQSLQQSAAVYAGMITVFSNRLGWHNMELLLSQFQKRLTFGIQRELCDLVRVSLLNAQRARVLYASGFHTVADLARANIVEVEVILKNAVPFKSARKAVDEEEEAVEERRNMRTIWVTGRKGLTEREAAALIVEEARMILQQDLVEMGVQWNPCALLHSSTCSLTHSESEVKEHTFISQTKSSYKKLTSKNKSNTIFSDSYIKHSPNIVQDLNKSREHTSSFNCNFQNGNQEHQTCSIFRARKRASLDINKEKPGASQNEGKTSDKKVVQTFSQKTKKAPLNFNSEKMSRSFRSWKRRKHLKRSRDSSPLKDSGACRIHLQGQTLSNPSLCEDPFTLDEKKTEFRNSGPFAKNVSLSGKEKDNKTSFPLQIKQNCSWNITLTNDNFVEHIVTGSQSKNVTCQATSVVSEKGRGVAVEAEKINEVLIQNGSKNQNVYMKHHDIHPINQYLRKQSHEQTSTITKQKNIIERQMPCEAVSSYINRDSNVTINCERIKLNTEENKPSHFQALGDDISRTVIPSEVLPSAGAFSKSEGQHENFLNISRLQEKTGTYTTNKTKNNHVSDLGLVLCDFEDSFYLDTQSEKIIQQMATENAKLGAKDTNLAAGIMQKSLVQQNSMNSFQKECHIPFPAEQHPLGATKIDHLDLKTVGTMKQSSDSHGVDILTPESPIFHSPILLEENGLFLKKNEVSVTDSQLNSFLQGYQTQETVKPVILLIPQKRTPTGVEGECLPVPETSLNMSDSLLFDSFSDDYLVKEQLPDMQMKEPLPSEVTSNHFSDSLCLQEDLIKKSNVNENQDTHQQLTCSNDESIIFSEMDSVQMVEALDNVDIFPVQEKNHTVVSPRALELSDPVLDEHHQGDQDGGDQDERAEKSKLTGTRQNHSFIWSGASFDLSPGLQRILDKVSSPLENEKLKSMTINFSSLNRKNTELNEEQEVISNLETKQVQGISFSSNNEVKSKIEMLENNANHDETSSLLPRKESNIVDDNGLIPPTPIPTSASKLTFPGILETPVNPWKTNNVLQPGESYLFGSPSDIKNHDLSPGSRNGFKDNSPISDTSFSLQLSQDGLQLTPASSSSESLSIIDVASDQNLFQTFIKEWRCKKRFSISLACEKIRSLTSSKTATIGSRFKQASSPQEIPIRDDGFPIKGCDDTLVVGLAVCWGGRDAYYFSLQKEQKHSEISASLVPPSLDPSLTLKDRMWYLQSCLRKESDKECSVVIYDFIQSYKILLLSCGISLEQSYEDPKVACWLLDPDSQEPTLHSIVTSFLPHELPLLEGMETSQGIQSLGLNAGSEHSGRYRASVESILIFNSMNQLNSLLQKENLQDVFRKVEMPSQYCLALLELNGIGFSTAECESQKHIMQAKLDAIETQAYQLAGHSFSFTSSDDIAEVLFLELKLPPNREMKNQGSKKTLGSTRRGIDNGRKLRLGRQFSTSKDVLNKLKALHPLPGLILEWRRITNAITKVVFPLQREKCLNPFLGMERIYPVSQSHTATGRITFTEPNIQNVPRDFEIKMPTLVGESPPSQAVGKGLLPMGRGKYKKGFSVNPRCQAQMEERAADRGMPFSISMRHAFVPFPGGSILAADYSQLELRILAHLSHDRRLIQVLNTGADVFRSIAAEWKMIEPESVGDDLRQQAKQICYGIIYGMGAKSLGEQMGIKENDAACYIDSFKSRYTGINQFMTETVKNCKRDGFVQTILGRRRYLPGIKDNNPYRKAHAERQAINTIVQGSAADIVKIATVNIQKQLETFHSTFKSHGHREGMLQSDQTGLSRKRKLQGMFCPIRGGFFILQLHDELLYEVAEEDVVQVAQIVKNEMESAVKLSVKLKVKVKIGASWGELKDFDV
Cc1ccc(C(=O)Nc2ccccc2C(=O)O)cc1S(=O)(=O)N1CCCCCC1: 4.13%
COc1cc2c(cc1Cc1cccc(Cl)c1F)c(=O)c(C(=O)O)cn2[C@H](CO)C(C)C: 48.4%
CC(C)(C)c1ccc(S(=O)(=O)c2cnc(SCC(=O)Nc3ccc4c(c3)OCCO4)[nH]c2=O)cc1: 7.66%
CCOc1ccccc1NC(=O)CSc1ncc(S(=O)(=O)c2ccc(C(C)(C)C)cc2)c(=O)[nH]1: 1.63%
COC(=O)c1cc(Cl)ccc1NC(=O)CSc1ncc(S(=O)(=O)c2ccc(Br)cc2)c(=O)[nH]1: 53.4%
CSc1ccc(/C=C/c2nc3ccccc3n2S(=O)(=O)c2cccc(Cl)c2)cc1: 17.6%
COc1ccc(S(=O)(=O)c2cnc(SCC(=O)Nc3cc(F)ccc3C)[nH]c2=O)cc1Cl: 20.9%
Cc1ccc(NC(=O)CSc2ncc(S(=O)(=O)c3ccc(C(C)C)cc3)c(=O)[nH]2)cc1C: 14.8%
CCCCCCCCCCC/C=C\C(C)(C)/C=C\CCCC(=O)O: 3.63%
Cc1ccc(-c2n[nH]c3c2C(c2ccccc2Cl)N(c2ccc(C(=O)O)cc2)C3=O)cc1 (stereo not drawn): 8.67%
O=C(Nc1noc2ccccc12)c1ccc(F)cc1: 4.19%

For quick reference, copied from above (study 1):
CASK: 69%
MKNK2: 100%
